Experimental data pooled from the literature.
Every numbered part comes from another study and shows a few of its results, in no order.

Set 1 — technique: protein-binding microarray; form: double-stranded DNA, one strand shown; sample: in vitro; concentration: 0.8 µM; notes: whole 60-bp probe, no competitor; direction: higher = stronger binding
Target: Centromere-binding protein 1, full length, N-terminal tag (CBF1, Saccharomyces cerevisiae, UniProt P17106, residues 1-351)
UniProt P17106, sequence (whole entry, looked up): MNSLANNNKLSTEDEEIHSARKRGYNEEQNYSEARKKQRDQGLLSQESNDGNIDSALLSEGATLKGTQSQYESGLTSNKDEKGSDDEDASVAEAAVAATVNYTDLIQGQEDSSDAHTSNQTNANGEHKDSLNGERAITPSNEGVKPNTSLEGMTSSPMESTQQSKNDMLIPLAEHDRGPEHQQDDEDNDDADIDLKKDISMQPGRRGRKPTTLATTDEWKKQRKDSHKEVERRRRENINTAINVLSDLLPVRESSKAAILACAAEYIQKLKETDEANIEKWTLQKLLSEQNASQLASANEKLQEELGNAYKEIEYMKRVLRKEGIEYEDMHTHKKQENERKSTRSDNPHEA
| Strand | fluorescence intensity [a.u.] |
| --- | --- |
| GAAAGCTGCTGTGGTGGTGTTTTGTTAAACGTGTAGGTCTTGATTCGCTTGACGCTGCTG | 535 |
| CTACTAAAAATGGGTCACGTGATCTATATTCGATTCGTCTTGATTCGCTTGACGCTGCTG | 61400 |
| CTATTCGAAGAGTGCAACGTGTTGAAAGAACCCTTCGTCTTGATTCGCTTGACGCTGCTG | 575 |
| GAACAATTAAGGGCGCACGTAGTCACTTGCGAATAGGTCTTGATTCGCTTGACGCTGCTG | 535 |
| CTACCTTTGCCAGCATACGTGTTACCCCCCTCATTCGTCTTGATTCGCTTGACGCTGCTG | 542 |
| CTAATTAACTATTTTAGCGTGACTGACTGATAATTCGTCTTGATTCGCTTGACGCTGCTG | 681 |
| CCTAACTACTATAAACACATGCCATAGCTTCGTACAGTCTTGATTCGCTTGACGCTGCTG | 601 |
| CTAATAGTTCCCTCCCTGATGTTGATCTTACTATTCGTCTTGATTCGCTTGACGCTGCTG | 497 |
| GAATTTTATCTCTCTCTGATGACGTGATATCTTTAGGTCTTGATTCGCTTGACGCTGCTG | 823 |
| GAAATCGGTACATCACCCGTGCCAAAATATGTGTAGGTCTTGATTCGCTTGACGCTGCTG | 668 |
| CTATCGATCATACAGTACATCAGGACCTGCGTATTCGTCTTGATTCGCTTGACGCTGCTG | 552 |
| GAAAGACGCACATACCGCGTGCGCGGAACTTTTTAGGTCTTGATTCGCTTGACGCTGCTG | 569 |
| GAATTCCTGTTCTGGTGCATGATGCTGGAATAATAGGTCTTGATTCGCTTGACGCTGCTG | 570 |
| GAATAGCTTCCATTACACCTGATGACTATTCTCTAGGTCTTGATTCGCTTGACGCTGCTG | 777 |

Set 2 — technique: RNA Bind-n-Seq; form: RNA; sample: in vitro; concentration: not given; notes: RNA with constant flanks, ends assumed; reference: input RNA pool; direction: higher = stronger binding
Target: RING finger protein unkempt homolog, zinc fingers 1-6, GST-SBP tag (UNK, Homo sapiens, UniProt Q9C0B0, residues 30-357)
Residues (chain): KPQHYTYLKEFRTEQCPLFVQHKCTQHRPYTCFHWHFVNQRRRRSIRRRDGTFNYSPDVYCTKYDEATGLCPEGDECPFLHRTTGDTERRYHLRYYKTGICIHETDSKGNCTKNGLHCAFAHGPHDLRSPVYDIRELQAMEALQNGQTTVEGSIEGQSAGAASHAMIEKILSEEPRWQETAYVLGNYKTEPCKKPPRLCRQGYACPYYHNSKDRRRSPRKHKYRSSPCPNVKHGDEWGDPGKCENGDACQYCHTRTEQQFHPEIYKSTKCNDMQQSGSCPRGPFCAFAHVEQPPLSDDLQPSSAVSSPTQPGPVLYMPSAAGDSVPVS
| Strand | bound/input enrichment |
| --- | --- |
| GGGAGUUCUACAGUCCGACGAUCCACAGAUCCUCCCUGUCAUGCCACAUUUCACUGAUUGGAAUGUGGAAAUGGAAAAGGAAUUCCGGAUGUGCAUUUUCACCUGAGGUUUCCCUGCAUCCCUGCAGUGCCAAAGCCCCACCUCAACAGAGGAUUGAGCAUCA | 0.108 ratio |
| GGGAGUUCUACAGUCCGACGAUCUUUUUGAAGGGUGUGAUGCUUGGAAGCAUUUUCUGUGCUUUGAUCACUAUGCUAGGACACAUCCGGAUUGGUCAUGGAAAUAGAAUGCACCACCAUGAGCAUCAUCACCUACAAGCUCCUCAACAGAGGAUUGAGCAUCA | 0.137 ratio |
| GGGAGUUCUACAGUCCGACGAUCGUAUUUAAUGUUGAAGUUGUUGCUGUUUCAUCCAUUCAUACACAAGACCCUUAUCCCGACAAAUUCUUUGCUCUUGUCAAUGCUCUGGAUGAACACAUGUUCCCGGUCCGAAUUGGGGACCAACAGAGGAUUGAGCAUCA | 0.423 ratio |
| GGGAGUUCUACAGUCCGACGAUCGAGUUUCCAGACAAGGUUUUUGCUGAGAAGUGGAAUGAAAAUGUUCAGUAUCUCUCAGAAGACCGAAGUGUGCAAGAAGUACUACAGAAGCAUUUCAAUAUCAGCAAAAACCUGCGGUCACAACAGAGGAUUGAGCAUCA | 0.0878 ratio |
| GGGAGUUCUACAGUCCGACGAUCGAAUAUAUAGGUGAAGAAGAAGCUACAUUAGUUGAUUUUGUUUGUUCUAAGGUUAUGGCUCACCGUUCACCCCAGAGCAUUUUAGAUGAUGUUGCCAUGGUACUUGAUGAAGAAGCAGAACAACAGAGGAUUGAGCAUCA | 2.7 ratio |
| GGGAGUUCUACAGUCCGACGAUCCCCACUGCUAUUCAAGCUCAGGGCUGGCCAGUUGCUCUCAGUGGAUUGGAUAUGGUUGGAGCCGCUCAGACUGGAUCUGGGAAAACAUUAUCUUAUUUGCUGCCUGCCAUUGUACACAUACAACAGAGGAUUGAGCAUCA | 0.338 ratio |
| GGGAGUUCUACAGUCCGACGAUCUUUUAUGCUCCGACAAGUGCUGUGGAGAACAUACUGGAACACUUGGCGCGAGACAUUGACGUGGUCCGACCAAAUAUUGUGAAACACCCUCUGACCCAGGAAGUAAAAGAGUGUGACGGCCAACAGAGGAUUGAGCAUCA | 0.27 ratio |

Set 3 — technique: RNA Bind-n-Seq; form: RNA; sample: in vitro; concentration: 365 nM; reference: no-protein control; direction: higher = stronger binding
Target: RNA binding protein fox-1 homolog 2, RRM domain, GST-SBP tag (RBFOX2, Homo sapiens, UniProt O43251-10, residues 100-194)
Notes: natural RNA segment, single round, ends assumed
Construct (chain): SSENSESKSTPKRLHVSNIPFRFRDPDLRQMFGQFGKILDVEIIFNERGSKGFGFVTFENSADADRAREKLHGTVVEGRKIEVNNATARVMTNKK
| Strand | RBNS enrichment (R) |
| --- | --- |
| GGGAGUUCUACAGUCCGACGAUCACCUGUCUACCUGAGGAGCUCCAGAGCUUCCCCAGAUGCUGGCUAUGCCUUGGCACUGACACCGUCCUGGCGCUGCCCAAGGCUAUACCUGUGUAGCCCUUUGGAUUCAGUGGAAUUCUCGGGUGCCAA | 0.218 |
| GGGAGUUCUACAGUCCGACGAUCCUUUUUGAACUUCCCUUCUAUUAAACUUAAAACAGAUGUCUUAAUUAAUCAGGCUGUCUUGGAAGGGUAUUGUAUUGGGAGACAAGGGGCGGUGGUGGACCUCACCUUCAUGGAAUUCUCGGGUGCCAA | 0.607 |
| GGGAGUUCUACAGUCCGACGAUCGAGCUUGCAGUGAGCCGAGAUUGUGCCACUGCACUCCAGCCUGGGCAACAGAGCUAGACUCUGUGUCAAAAAUAAAUGACUAGAUAAAAAAAAAAAUUGUUUGAGUACAUUGGAAUUCUCGGGUGCCAA | 0.948 |
| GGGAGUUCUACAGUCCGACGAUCUGAGACCCUGUCUCAAGGAAAAAUCAAAAGUUCUUUACAGAUGUGUGCGUGCGGGCGUCAGUUUCCAGGAUAGCCGUGCUGCAGUCCAGUUAGGCUGUUCUCCUGAGCUGUGGAAUUCUCGGGUGCCAA | 0.216 |
| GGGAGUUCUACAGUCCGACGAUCCCUCUCCCAUCUGCCAGUCUCUCUGUGCCCUCGUGUCUGAGUGCUGUUUGCCCACCUUUUCCAGGUGUAAGAGGCAGAGAGCCUGGACAGCUUUCUCUCUCAGCCAUUGUUGGAAUUCUCGGGUGCCAA | 0.5 |
| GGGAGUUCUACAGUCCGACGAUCCUUGCCAGUUCUUCAGCUCUAGGACUUGUAGCUUUAAGCAAACGGUGUGGCAUGGGUUGAGUGUGGCCACCUGCAGGAUGUGCAGGGCUGCCUCAGAAGCUGGCUGGGGAUGGAAUUCUCGGGUGCCAA | 1.18 |
| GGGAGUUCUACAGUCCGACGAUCACACACACACAGCGAUGCAUCUCUCUCUAAAGCUCAGCCACGGCUGCGGCAAGGUCCCAGCGGUCGCUGGGAGACAGAAGGUUUUGUGCCCUGCUGUAUCAUAAAGCACAUGGAAUUCUCGGGUGCCAA | 0.398 |
| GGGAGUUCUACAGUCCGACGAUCUUGAUUUAUUUUACACCUCUGCUUAGGCCUCCUGCCUGGAGAUGAGCCAUGCUGUUGUGAGAUUUUUAGCUGCUGGAAGGCUAGGUAAUCACUGGGUAGUAUCACACAGGUGGAAUUCUCGGGUGCCAA | 0.534 |

Set 4 — technique: protein-binding microarray; form: double-stranded DNA, one strand shown; sample: in vitro; concentration: 250 nM; notes: 60-bp whole probe; together with: salmon DNA 0.4 mg/ml; reference: random background probes; direction: higher = stronger binding; all sequences stand within: GCCTAGCAC … GTCTTGATTCGCTTGACGCTGCTG
Target: Interferon regulatory factor 7, full length, phosphomimetic (IRF7, Homo sapiens, UniProt Q92985, residues 1-503, S101K/S471D/S472D/S475D/S476D/S477D/S483D/S484D/S487D)
Construct (chain): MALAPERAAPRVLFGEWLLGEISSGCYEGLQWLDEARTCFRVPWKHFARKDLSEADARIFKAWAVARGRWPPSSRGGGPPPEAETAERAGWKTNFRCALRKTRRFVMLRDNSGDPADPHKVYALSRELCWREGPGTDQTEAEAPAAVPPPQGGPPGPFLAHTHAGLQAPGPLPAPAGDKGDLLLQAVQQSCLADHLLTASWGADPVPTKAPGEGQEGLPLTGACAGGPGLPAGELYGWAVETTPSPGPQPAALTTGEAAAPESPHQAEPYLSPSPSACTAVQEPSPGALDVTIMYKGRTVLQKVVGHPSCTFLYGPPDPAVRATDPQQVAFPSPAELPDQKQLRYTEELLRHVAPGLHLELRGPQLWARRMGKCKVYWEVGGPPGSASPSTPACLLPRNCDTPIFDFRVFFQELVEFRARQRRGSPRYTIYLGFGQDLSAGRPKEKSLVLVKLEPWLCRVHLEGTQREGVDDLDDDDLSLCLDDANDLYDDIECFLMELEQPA
| Strand | log fluorescence [z-score] |
| --- | --- |
| TTAGGACTGGACACTGGGTTGGTGCTA | -0.793 |
| GACGAACTGGAGTTTCGAGACGTGCTA | 2.77 |
| TTAGGTATAGGGACTGGGTTAGTGCTA | 0.0414 |
| GACGGTTTCGTTCTCGGGACGTGCTAG | 9.01 |
| TTAGATTTCTGTTCCGATTAGTGCTAG | 1.44 |
| GAGGGTTTCCTTTTCCTGACGTGCTAG | 4.72 |
| GACGATTTCGCGACTGGAGACGTGCTA | 0.395 |
| GACGGTCTGCTTATCCTGACGTGCTAG | -0.441 |
| TTAGGTATCCTTCTCCTTGAGTGCTAG | 0.585 |

A few entries again (set 3):
| Strand | RBNS enrichment (R) |
| --- | --- |
| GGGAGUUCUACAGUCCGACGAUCCUUGCCAGUUCUUCAGCUCUAGGACUUGUAGCUUUAAGCAAACGGUGUGGCAUGGGUUGAGUGUGGCCACCUGCAGGAUGUGCAGGGCUGCCUCAGAAGCUGGCUGGGGAUGGAAUUCUCGGGUGCCAA | 1.18 |
| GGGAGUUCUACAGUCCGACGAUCACACACACACAGCGAUGCAUCUCUCUCUAAAGCUCAGCCACGGCUGCGGCAAGGUCCCAGCGGUCGCUGGGAGACAGAAGGUUUUGUGCCCUGCUGUAUCAUAAAGCACAUGGAAUUCUCGGGUGCCAA | 0.398 |
| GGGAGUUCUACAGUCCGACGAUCUUGAUUUAUUUUACACCUCUGCUUAGGCCUCCUGCCUGGAGAUGAGCCAUGCUGUUGUGAGAUUUUUAGCUGCUGGAAGGCUAGGUAAUCACUGGGUAGUAUCACACAGGUGGAAUUCUCGGGUGCCAA | 0.534 |
